Assay results of several laboratories.
Compare with care: the assays were run in different laboratories. Values joined by “and” are separate records of one study, mostly repeats; a detail may differ. ± gives the spread as reported.
TOP2A: DNA topoisomerase 2-alpha (TOP2A, Homo sapiens, UniProt P11388)
CD274: Programmed cell death 1 ligand 1 (CD274, Homo sapiens, UniProt Q9NZQ7)
BEST2: Bestrophin-2a (BEST2, Homo sapiens, UniProt Q8NFU1)
T1: ssDNA, aptamer; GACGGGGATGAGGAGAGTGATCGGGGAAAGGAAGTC
T2: RNA aptamer; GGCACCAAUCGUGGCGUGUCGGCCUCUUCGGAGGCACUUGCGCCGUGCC

CCCCC[C@H](O)/C=C/[C@H]1[C@H](O)CC(=O)[C@@H]1C/C=C\CCCC(=O)O  Emax (PTGER1 (Homo sapiens, UniProt P34995, F334A/P39A); IP1 accumulation, agonist; AD293; 1 h; reference: wild type receptor): 74.7 ± 4.49%
Nc1ncnc2c1ncn2[C@@H]1O[C@H](COP(=O)(O)OP(=O)(O)OP(=O)(O)O)[C@@H](O)[C@H]1O  Kd (T1, ssDNA, aptamer; ITC): 1.5 µM
CCCCCCCSCCc1ccc2[nH]cnc2c1  reduction in Vmax (ATP2A2 (Sus scrofa, UniProt P11607); ATPase activity, inhibitor; pig microsomes; concentration not given; reference: vehicle): ~76%
CCS(=O)(=O)N1CC(CC#N)(n2cc(-c3ncnc4[nH]ccc34)cn2)C1  energy transfer efficiency (ORM1 (Homo sapiens, UniProt P02763); FRET; 1.2 µM): 27.2%
C=CC(=O)N1CCC(COCC(=O)N2CCN(c3nc(-c4cnc(N)nc4C(F)F)nc(N4CCOC[C@@H]4C)n3)CC2)CC1  remaining binding (RET (Homo sapiens, UniProt P07949, V804M); KINOMEscan; 1 µM): 98%
CN1CCN(c2cc(-c3ccncc3)c(-c3ccc4ccccc4c3)nn2)CC1  activation (PTGER2 (Homo sapiens, UniProt P43116); agonist, FLIPR; 12.5 µM): -1.1%
CCC(C)(NCCc1ccc(OC)cc1)c1cccc(NC2=CC(=O)N(C3CCC(=O)NC3=O)C2=O)c1 (stereo not drawn)  Dmax (Cereblon/Ikaros (Homo sapiens, UniProt Q13422+Q96SW2); protein degradation, degrader, HiBiT luminescence; Jurkat): 74%
O=c1nc(SCc2cc(F)cc(C(F)(F)F)c2)nc(SCc2ccc3ccccc3n2)[nH]1  decatenated DNA (TOP2A; decatenation; 31.25 µM, replicate 1): 0%
Nc1ncnc2c1ncn2[C@@H]1O[C@H](COP(=O)(O)OP(=O)(O)OP(=O)(O)O)[C@@H](O)[C@H]1O  normalized current (P2X purinoceptor 7 (P2rx7, Rattus norvegicus, UniProt Q64663); ion current, agonist, two-electrode voltage clamp; Xenopus laevis oocytes; 2 µM; reference: highest concentration response): 0
Cc1nc(CSc2nc(SCc3cc(F)cc(C(F)(F)F)c3)nc(=O)[nH]2)cs1  mean decatenated DNA (TOP2A; decatenation; 15.6 µM): 93.9%
CCCC(CCC)c1nc2c(Nc3ccc(C#CCCCCCCCCN)cc3)nc3ccccc3c2[nH]1  agonist activity (ADORA1 (Homo sapiens, UniProt P30542); cAMP formation inhibition, agonist; HEK293 overexpressing receptor; concentration not given, added: Cl-ENBA): no effect
Nc1nc2c(ncn2[C@@H]2O[C@H](COP(=O)(O)O)[C@@H](O)[C@H]2O)c(=O)[nH]1  Vmax (GUK1 (Homo sapiens, UniProt Q16774); substrate, NADH-coupled; NaCl 50 mM, enzyme 2 nM): 0.102 µM/s
Cc1cccc(N2CC(C(=O)O)CC2=O)c1 (stereo not drawn)  fold enrichment (Histone-lysine N-methyltransferase SETDB1, triple tudor domain (SETDB1, Homo sapiens, UniProt Q15047); binding, affinity selection mass spectrometry; reference: other proteins in batch): 1.04
Cl.c1cc(N2CCC(N3CCOCC3)CC2)ccc1Nc1ccc2ncc(OCC3CCNCC3)nc2c1  activity (Protein AF-9, with DOT1L (Homo sapiens, UniProt P42568); inhibitor, AlphaLISA; 10 µM): inactive
COc1nc(-c2cccc(-c3ccccc3)c2C)ccc1CNCCCCCCCCCCC(=O)N(C)CCCC12CCC(c3ccccc31)c1ccccc12  degradation (CD274; degrader, western blot; HL-60; 1 µM): 31.5 ± 1.9%
CC(C)c1cccc2c(-c3ccc(Cl)cc3)cc(-c3ccc(-c4ccc(C(=O)O)cc4)[nH]3)nc12  selectivity ratio (RARB (Homo sapiens, UniProt P10826); reporter gene, antagonist; reference: IC50 RARα over IC50 RARB): 16 fold
C=CC(=O)N1CCC[C@@H](n2nc(-c3ccc(Oc4ccccc4)cc3)c3c(N)ncnc32)C1  remaining activity (FGFR1 (Homo sapiens, UniProt P11362); 0.1 µM): 98.8%
OC[C@H]1OC(O)[C@H](O)[C@@H](O)[C@@H]1O (stereo partly drawn)  V∞/Vmax ratio (b) (Hexokinase-3 (HK3, Homo sapiens, UniProt P52790, E254A/R267A); substrate inhibition; mutant E254A/R267A, partial substrate inhibition model, added: ATP 20 mM): 0.3 ± 0.04
N[C@@H](Cc1ccccc1)C(=O)O  cAMP level (ADRB2 (Homo sapiens, UniProt P07550); HEK293 expressing β2AR; 10 µM): 19.1 pmol/mg protein and 20.2 pmol/mg protein and 19.7 pmol/mg protein and 18.3 pmol/mg protein and 20.3 pmol/mg protein
CCN1CCN(c2cc(N3CCN(CC)CC3)nc(NCCNc3ccnc4cc(Cl)ccc34)n2)CC1  activation (Bile acid receptor (NR1H4, Homo sapiens, UniProt Q96RI1); reporter gene, Gal4 hybrid reporter; 20 µM; reference: vehicle): 1.22 fold
CC(=O)Nc1ccc(O)cc1  chemical shift change (BRD4 (Homo sapiens, UniProt O60885); 19F NMR, item: tyrosine 118; 1470 µM; reference: free protein): -0.005 ppm
CCOC(=O)C1=C(CN2CCc3ccccc32)NC(=O)NC1c1ccccc1OC(F)F (stereo not drawn)  SPR response (AASS, SDH domain (Homo sapiens, UniProt Q9UDR5); binding, surface plasmon resonance; 15 µM): 23.5 RU
Oc1c(Br)cc(Oc2ccc(Br)cc2Br)cc1Br  apparent Vmax (SULT1E1 (Homo sapiens, UniProt P49888); sulfonation, substrate): 4.05 nmol/min/mg protein
O=c1[nH]c2ccccc2s1  EC10 (PPARG (Homo sapiens, UniProt P37231); reporter gene, agonist, β-lactamase reporter; HEK293-H cells; 24 h, nominal concentration; reference: 10% of rosiglitazone maximum effect): 19.4 µM
O=c1nc(SCc2cc(F)cc(C(F)(F)F)c2)nc(SCc2ccc3ncsc3c2)[nH]1  mean decatenated DNA (TOP2A; decatenation; 15.6 µM): 93.7%
Nc1ncnc2c1ncn2[C@@H]1O[C@H](CO[P@](=O)(O)O[P@](=O)(O)O[P@@](=O)(O)S)[C@@H](O)[C@H]1O  ΔH (GUK1 (Homo sapiens, UniProt Q16774, S13A); binding, ITC): -2.62 ± 0.19 kcal/mol
CN1CCC(Nc2nc(Nc3ccc(Oc4ccccc4)cc3)c3c(=O)[nH]cc(Br)c3n2)CC1  Hill slope (PKN1 (Homo sapiens, UniProt Q16512); inhibitor): -0.723
CC[C@@H](C)[C@@H](NC(=O)[C@@H](Cc1ccc(O)cc1)NC(=O)[C@H]1CCCN1C(=O)[C@@H](CCCNC(=N)N)NC(=O)[C@H](N)Cc1c[nH]cn1)C(=O)N[C@H](C)C(=O)N[C@H](Cc1c[nH]cn1)C(=O)N[C@H](CCCNC(=N)N)C(=O)N[C@@H](C(=O)N[C@H](Cc1ccc(O)cc1)C(=O)N[C@H](CO)C(=O)N[C@H](Cc1ccccc1)C(N)=O)C(C)C  surface TFRC expression (Transferrin receptor protein 1 (Tfrc, Mus musculus, UniProt Q62351); flow cytometry; DC2.4; 48 h, pH 6, replicate 1, unit not given; reference: 0 h): 0.856
Nc1ncnc2c1ncn2[C@@H]1O[C@H](COP(=O)(O)CP(=O)(O)OP(=O)(O)O)[C@@H](O)[C@H]1O  specific binding (P2X purinoceptor 1 (P2RX1, Homo sapiens, UniProt P51575, E122A); saturation binding; 1 nM): 11.5 corrected cpm and 10 corrected cpm
O=C(O)c1ccc(O)cc1  current density (BEST2; whole-cell patch clamp; HEK293 transiently expressing channel; concentration not given, membrane potential -20 mV): -49.4 pA/pF and -35.5 pA/pF and -26.6 pA/pF and -48.6 pA/pF and -64.8 pA/pF and -25.6 pA/pF and -52.1 pA/pF
Cc1c(COc2ccc(CN3CCCCC3C(=O)O)cc2Br)cccc1-c1ccccc1 (stereo not drawn)  protein level (Cd274 (Mus musculus, UniProt Q9EP73); western blot; mouse B16-F10 tumour, tumour; dose not given, unit not given; reference: β-actin, control): 0.936
O=S(=O)(O)C1CCNCC1  normalised MST signal (SLC6A6 (Homo sapiens, UniProt P31641, Y138A); binding, microscale thermophoresis; 977 nM, room temperature, added: 50 nM labelled protein; higher = more binding): 0.0102
CC1(C)C(/C=C/C=C2/N(CCCc3ccccc3)c3ccc4ccccc4c3C2(C)C)=[N+](CCCc2ccccc2)c2ccc3ccccc3c21.[Br-]  Hill coefficient (PRMT6 (Homo sapiens, UniProt Q96LA8); inhibitor, filter binding; added: R4 peptide substrate): 1.29
O=c1nc(SCc2cc(F)cc(C(F)(F)F)c2)nc(SCc2nc3ccccc3[nH]2)[nH]1  decatenated DNA (TOP2A; decatenation; 15.6 µM, replicate 1): 96.9%
N#Cc1ccn2c(-c3ccncc3)c(-c3ccc(F)cc3)nc2c1  log2 fold change (Mitogen-activated protein kinase MKC1 (MKC1, Candida albicans, UniProt P43068); kinase binding, competitor, MIB/MS competition, item: MKC1; Candida albicans cell lysate; 1 µM; reference: DMSO): 0.0494
CN(CCO)c1ccc(/C=C(\C#N)c2ccc(C#N)cc2)cc1  Kd (T2, RNA aptamer; fluorescence titration, Hill fit; apparent): 0.572 µM
C[C@@H](O)[C@H](NC(=O)[C@H](Cc1ccc(O)cc1)NC(=O)[C@H](Cc1ccc(O)cc1)NC(=O)[C@H](CO)NC(=O)[C@H](CCCNC(=N)N)NC(=O)[C@H](Cc1c[nH]cn1)NC(=O)[C@@H](N)Cc1c[nH]c2ccccc12)C(=O)N[C@@H](Cc1c[nH]c2ccccc12)C(=O)N[C@@H](CC(N)=O)C(=O)NCCCC[C@H](NC(=O)[C@H](CC(N)=O)NC(=O)[C@H](Cc1c[nH]c2ccccc12)NC(=O)[C@@H](NC(=O)[C@H](Cc1ccc(O)cc1)NC(=O)[C@H](Cc1ccc(O)cc1)NC(=O)[C@H](CO)NC(=O)[C@H](CCCNC(=N)N)NC(=O)[C@H](Cc1c[nH]cn1)NC(=O)[C@@H](N)Cc1c[nH]c2ccccc12)[C@@H](C)O)C(N)=O  fold reduction of blocking (Programmed cell death 1 ligand 1, with PD-1 (CD274, Homo sapiens, UniProt Q9NZQ7); PD-1 binding, inhibitor, competitive ELISA; 2.5 µM; reference: PBS over 2% BSA): 1.5 fold
Nc1nc2c(nc(Sc3ccc(Cl)cc3)n2C2O[C@@H]3COP(=O)(O)O[C@H]3[C@H]2O)c(=O)[nH]1 (stereo in doubt)  relative binding affinity (anti-cGMP antibody; antibody binding, competitive cGMP EIA; concentration not given, acetylated samples; reference: EC50 cGMP over EC50 cpd, higher = stronger binding): 2.41
COc1ccc(C(=O)/C=C/c2cccc(-c3cccc(-c4ccc(CNC(CO)(CO)CO)c(OC)n4)c3C)c2)cc1  degradation (CD274; degrader, western blot; HL-60; 1 µM): < 5%
O=c1cc(-c2ccc(OS(=O)(=O)[O-])cc2)oc2cc(OS(=O)(=O)[O-])cc(OCc3cccc(COc4cc(OS(=O)(=O)[O-])cc5oc(-c6ccc(OS(=O)(=O)[O-])cc6)cc(=O)c45)n3)c12.[Na+].[Na+].[Na+].[Na+]  duration of full inhibition (Neutrophil elastase (ELANE, Homo sapiens, UniProt P08246); elastin cleavage, inhibitor, elastin-Congo red; concentration not given): > 48 h
CC(C)c1ccc(CSc2nc(SCc3ccc4sccc4c3)[nH]c(=O)n2)cc1  decatenated DNA (TOP2A; decatenation; 31.25 µM, replicate 1): 0%
Cc1ccc(C(=O)N2c3ccc(F)cc3[C@@H](Nc3ccccc3)C[C@H]2C)cn1  pIC50 Z-score (Ecdysone receptor (Aedes albopictus, UniProt Q9U3Y4); ligand binding, inhibitor; intact cells; added: [3H]ponasterone A; direction not given): -0.68
CC[S+]([O-])c1nc(-c2ccccc2)cc(C(F)(F)F)n1 (stereo not drawn)  delta Tm (KPNB1 (Homo sapiens, UniProt Q14974); thermal shift; 30 µM, 2 h; reference: untreated): 2.2 °C
O=C(NO)c1ccc(CN2CCCCc3ccccc32)c(F)c1  inhibition of radioligand binding (GABAA receptor; radioligand binding; 10 µM): 39%
Nc1ccc(C(=O)O)cc1  current density (BEST2; whole-cell patch clamp; HEK293 transiently expressing channel; concentration not given, membrane potential 60 mV): 145 pA/pF and 208 pA/pF and 238 pA/pF and 59.6 pA/pF and 185 pA/pF and 121 pA/pF
O=c1nc(SCc2cc(F)cc(C(F)(F)F)c2)nc(SCc2ccc3nc(Cl)ccc3c2)[nH]1  ATP hydrolysis rate (TOP2A; ATPase activity; 31.25 µM, added: ATP 0.75 mM): 1.67 µM/min and 2.38 µM/min
NC(=O)C1CCN(C(=O)c2ccc(NCc3cnc4nc(N)nc(N)c4n3)cc2)CC1  partition index (Pteridine reductase 1 (Leishmania major, UniProt Q01782); hDHFR weight 10; reference: LmPTR1, LmDHFR over hDHFR, 1.0 selective, 0.0 non-selective): 0.87
O=c1nc(SCc2cc(F)cc(C(F)(F)F)c2)nc(SCc2cccc(C(F)(F)F)c2)[nH]1  mean decatenated DNA (TOP2A; decatenation; 15.6 µM): 34.5%
O=C(O)C1=CCNCC1  current density (BEST2; whole-cell patch clamp; HEK293 transiently expressing channel; concentration not given, membrane potential 40 mV): 104 pA/pF and 163 pA/pF and 19.8 pA/pF and 81.8 pA/pF and 80 pA/pF
COc1ncc(CNc2c(CO)cnc3c(C4CC4)cc(C#N)cc23)cc1Cl  activity class (PDE2A (Homo sapiens, UniProt O00408); enzyme activity, inhibitor; concentration not given): inactive
c1coc(-c2n[nH]cc2-c2ccnc3ccccc23)c1  log2 fold change (Actin-regulating kinase PRK1 (PRK1, Candida albicans, UniProt Q5A961); kinase binding, MIB/MS competition; Candida albicans lysate; 1 µM; reference: DMSO, negative = stronger binding): 0.05
